Published values from different studies.
A part holds a random share of what one study measured. Changes are numbered by the printed parent chain.

Block 1 — method: universal PBM; molecule type: double-stranded DNA, one strand shown; matrix: in vitro; tested at: not given; reading: higher = stronger binding; quantity: E-score
Target: Sal-like protein 4, full length isoform B (SALL4, Homo sapiens, UniProt Q9UJQ4-2, residues 1-616)
Notes: 8-mer, flanks averaged, mean of replicates
Sequence = AATAGAGG; result = 0.0629
Sequence = CTCTGAAG; result = -0.209
Sequence = AAGCTGTA; result = 0.227
Sequence = CGGTTCGC; result = -0.273
Sequence = CTGTGTAC; result = 0.0494
Sequence = ACGCAGTG; result = -0.238
Sequence = CCACGAGA; result = -0.337
Sequence = CAGTCGCC; result = -0.198
Sequence = CACCGCGA; result = -0.345
Sequence = TGGACTAA; result = 0.0368
Sequence = ATTTAAGG; result = 0.0462
Sequence = AAAACACG; result = 0.0335
Sequence = AACCTATT; result = 0.101
Sequence = GCTACTTA; result = 0.0423
Sequence = AGATCTCA; result = 0.0675
Sequence = GCCCGATA; result = -0.0645
Sequence = CCCAAGGC; result = -0.206
Sequence = AAAACAGG; result = 0.0463
Sequence = ACGGTAAT; result = 0.199
Sequence = AAAATGCC; result = 0.14
Sequence = ATGTTGAC; result = 0.14
Sequence = AAGGCGGC; result = -0.171
Sequence = GGTGGTAA; result = 0.0487
Sequence = ACTGACGA; result = 0.0432

Block 2 — method: RNA Bind-n-Seq; molecule type: RNA; matrix: in vitro; tested at: not given; baseline: input RNA pool; reading: higher = stronger binding; quantity: bound/input enrichment
Target: RING finger protein unkempt homolog, zinc fingers 1-6, GST-SBP tag (UNK, Homo sapiens, UniProt Q9C0B0, residues 30-357)
UniProt Q9C0B0, sequence (30-357, looked up): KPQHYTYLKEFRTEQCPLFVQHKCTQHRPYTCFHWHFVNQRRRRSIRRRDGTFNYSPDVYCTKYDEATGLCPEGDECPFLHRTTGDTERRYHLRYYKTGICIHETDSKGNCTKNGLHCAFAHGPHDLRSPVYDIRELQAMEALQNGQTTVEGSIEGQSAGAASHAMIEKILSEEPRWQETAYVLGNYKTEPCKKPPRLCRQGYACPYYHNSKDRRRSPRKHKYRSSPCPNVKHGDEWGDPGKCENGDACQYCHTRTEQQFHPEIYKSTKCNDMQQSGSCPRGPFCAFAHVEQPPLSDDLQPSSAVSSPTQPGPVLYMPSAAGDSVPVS
Notes: RNA with constant flanks, human and mouse sites, ends assumed
Shared flanks, not repeated: GGGAGUUCUACAGUCCGACGAUC … CAACAGAGGAUUGAGCAUCA
Sequence = CAGGUGGGCCAAUCCAAAAUAACAGUUCUUGGCAGUCCUUCCAUGGGUAUCUAUCUUUGUAGGUAUGCAGAUCUCUUACAGGCUAAUCCUUUGGAGGCUGGGGCAGUAGGCGAUGUUGUU; result = 0.518 ratio
Sequence = UAUGGUUUUGAGAAGCCCUCUGCCAUCCAGCAGCGAGCUAUUCUUCCUUGUAUCAAGGGUUAUGAUGUGAUUGCUCAAGCCCAGUCUGGGACUGGGAAAACAGCUACAUUUGCCAUAUCA; result = 0.125 ratio
Sequence = CAUGUGCAGGGUGAGGUUUUUUUUUGCCACCCUGGACACAUGUUGGCCCCCUCAAAGAAUUUCUGUGGGGAUUUGUACCCCAGAAUCCUGUUCCCCCAUCCCUUCUCCCACCUCCUCCCC; result = 0.741 ratio
Sequence = AUUUUUUUCCCCCACUGUCAGAAAGCUAAGGGAAGCUUCAGAGUUCUAAUCCAGUUGCAUGUAGGACAAAGGAUAUACUUUAAAUAAAGACCAUCUAUUGAGGUGCAGUAGGGAACCUCU; result = 0.676 ratio
Sequence = AGAGGAGUUUGGGGGCUUGGCACCUGAAAAUUUAGACCGCAUUCUUAUUAAGUAAAGGAAGAGGUAGGGAGGCCGAGGCGGGCGGAUCAUGAAAUCAGGAGAUCCAGACCGUCCUGGCUA; result = 0.989 ratio
Sequence = CCUCUACUUCAGUACUUUGGUAUCCUUUUGGACCAGGGACAGCUCAACAAAUACGAAUCCUUAGAGCUUUGUAGGCCUGUACUUCAGCAAGGGCGAAAACAGCUUUUGGAGAAAUGGUUA; result = 0.0855 ratio
Sequence = ACUGACACGAUGAUUCAGACUCCUGGACCCUUGCCAACCCCACAGCUCACCUCCACGGUACUUAGAGAAAACAGCCGUCCCAUGGGAGAGCAGAUUCAGGAACCUGAGUCUGAGCAUGGC; result = 0.176 ratio
Sequence = UCAUCGACCACCAUGACAACACCUACACAGUCAAGUACACGCCUGUCCAGCAGGGUCCAGUAGGCGUCAAUGUCACUUAUGGAGGGGAUCCCAUCCCUAAGAGCCCUUUCUCAGUGGCAG; result = 0.186 ratio
Sequence = CAGUGGUAAAGUGAAGCAAAUUGUUCUACCAAGACCUCAUUCUUCAUGUCAUUAAGCAAUAGGUUGCAGCAAACAAGGAAGAGCUUCUUGCUUUUUAUUCUUCCAACCUUAAUUGAACAC; result = 0.148 ratio
Sequence = CUCUGAGUUUGAAGGGACAGCUAUUUUUAUUGAUUAUCUUUAAGUCUCUCUACCAUGGAGAAGAGCAGGAAGGGAUACACUCUCCAGUGCAUUUUCAUGUUUUGAAUCUGAUUAGUGGAU; result = 0.27 ratio
Sequence = AAAGUAUUGGGCACUAGGAAAUUGAUGCAUGUUGCUUAUGAAGAAUUUGAAAAAGUUAUGGUAGCAUGCUUUGAAGUUUUUCAGACUUGGGAUGAUGAGUAUGAGAAACUUCAGGUAUUG; result = 1.21 ratio

Block 3 — method: protein-binding microarray; molecule type: double-stranded DNA, one strand shown; matrix: in vitro; tested at: not given; reading: higher = stronger binding; quantity: E-score
Target: Transcriptional repressor CTCF (CTCF, Homo sapiens, UniProt P49711, residues 1-727, full length assumed)
Notes: k-mer, scored over probes, only values ≥0.25
Construct (chain): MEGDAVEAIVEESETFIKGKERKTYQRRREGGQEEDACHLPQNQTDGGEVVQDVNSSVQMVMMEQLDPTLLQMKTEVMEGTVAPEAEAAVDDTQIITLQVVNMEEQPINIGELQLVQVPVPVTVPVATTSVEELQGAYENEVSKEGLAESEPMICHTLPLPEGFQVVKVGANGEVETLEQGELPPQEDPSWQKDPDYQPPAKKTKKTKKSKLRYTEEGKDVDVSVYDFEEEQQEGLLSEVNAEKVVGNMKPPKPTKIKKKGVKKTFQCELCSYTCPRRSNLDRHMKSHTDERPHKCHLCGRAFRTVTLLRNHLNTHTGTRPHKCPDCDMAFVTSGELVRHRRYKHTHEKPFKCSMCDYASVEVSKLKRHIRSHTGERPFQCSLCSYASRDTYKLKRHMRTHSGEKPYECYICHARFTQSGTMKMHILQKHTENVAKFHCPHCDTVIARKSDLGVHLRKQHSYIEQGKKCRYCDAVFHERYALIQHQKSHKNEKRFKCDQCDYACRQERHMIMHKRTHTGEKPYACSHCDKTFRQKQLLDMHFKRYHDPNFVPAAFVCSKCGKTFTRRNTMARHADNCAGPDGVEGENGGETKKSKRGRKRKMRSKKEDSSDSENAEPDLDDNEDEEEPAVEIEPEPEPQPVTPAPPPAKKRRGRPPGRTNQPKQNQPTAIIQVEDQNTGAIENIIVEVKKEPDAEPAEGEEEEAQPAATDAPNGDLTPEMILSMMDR
Sequence = ATAACAGA; result = 0.277
Sequence = AATATAGA; result = 0.279
Sequence = AATATAGT; result = 0.296
Sequence = ATATACTA; result = 0.268
Sequence = TATAATCA; result = 0.277
Sequence = GCGCACCA; result = 0.316
Sequence = AATATGCG; result = 0.337
Sequence = TGCATTAA; result = 0.272
Sequence = AAAGCGCC; result = 0.323
Sequence = TAATTAAA; result = 0.299
Sequence = GCAATATA; result = 0.299
Sequence = GCGAATTA; result = 0.281
Sequence = AGGGGCGC; result = 0.373
Sequence = AACAAAAA; result = 0.29
Sequence = AAAACAAT; result = 0.255
Sequence = TAATATGA; result = 0.3
Sequence = AATATTGC; result = 0.265
Sequence = CACATGTA; result = 0.267
Sequence = AATATTAT; result = 0.353
Sequence = CCCTAGCG; result = 0.412
Sequence = ATTAAGTA; result = 0.31
Sequence = AAATACAT; result = 0.301
Sequence = AATACATA; result = 0.268
Sequence = AATGGTAA; result = 0.301
Sequence = AAACAATA; result = 0.302

Block 4 — target: CCND2, cyclin fold, Cln2 fusion (human); method: yeast growth competition, sequencing; matrix: yeast; notes: weak parent motif; baseline: not given; reading: higher = stronger binding; quantity: normalised enrichment score
Starting sequence: REPIN1 docking peptide (human); QSFRGWVALVLHL
Variant = QSFRGAVALVLHL [W6A]; result = -0.329
Variant = QSARGWVALVLHL [F3A]; result = -0.13
Variant = QSFRGWVAAVLHL [L9A]; result = -0.901
Variant = QAFRGWVALVLHL [S2A]; result = -0.109
Variant = QSFAGWVALVLHL [R4A]; result = -0.734
Variant = QSFRGWVALVAHL [L11A]; result = -0.0797

Block 5 — method: DHFR PCA, deep sequencing; matrix: yeast; added: (+)-ABA 710 µM; baseline: wild-type fitted maximum; reading: higher = stronger binding; quantity: relative binding score
Target: ABI1, truncated, D143A, DHFR fusion (Arabidopsis thaliana)
Notes: methotrexate growth selection, single substitutions
Starting sequence: PYL1, truncated, DHFR fusion (Arabidopsis thaliana); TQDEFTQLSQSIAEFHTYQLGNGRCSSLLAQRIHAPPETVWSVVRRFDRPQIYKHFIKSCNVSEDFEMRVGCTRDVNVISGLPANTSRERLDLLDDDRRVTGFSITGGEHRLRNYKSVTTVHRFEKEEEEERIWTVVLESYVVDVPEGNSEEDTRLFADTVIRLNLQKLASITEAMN
Variant = Q19W; result = 92.2%
Variant = E14A; result = 89%
Variant = R123H; result = 101%
Variant = K168L; result = 80.3%
Variant = I33V; result = 102%
Variant = E38D; result = 99.2%
Variant = L156N; result = 97.7%
Variant = S26R; result = 93.5%
Variant = D65E; result = 104%
Variant = D97K; result = 117%
Variant = E130G; result = 109%
Variant = T135L; result = 3.6%

Block 6 — method: RNA Bind-n-Seq; molecule type: RNA; matrix: in vitro; tested at: 365 nM; baseline: no-protein control; reading: higher = stronger binding; quantity: RBNS enrichment (R)
Target: RNA binding protein fox-1 homolog 2, RRM domain, GST-SBP tag (RBFOX2, Homo sapiens, UniProt O43251-10, residues 100-194)
Notes: natural RNA segment, single round, ends assumed
Shared flanks, not repeated: GGGAGUUCUACAGUCCGACGAUC … UGGAAUUCUCGGGUGCCAA
Target sequence (chain): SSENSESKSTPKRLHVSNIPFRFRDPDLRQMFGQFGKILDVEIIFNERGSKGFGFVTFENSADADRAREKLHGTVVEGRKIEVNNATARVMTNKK
Sequence = GAUAUUCAUCUCUCCAUUAGCAAUUGAAUCCAGGCAUAACCGGGCUCAGUUACACAGCUUGUCUGUGACUGGGAAGCCCAUUUUGUGUCAUUUCUGCACACCUGUCCGCU; result = 0.569
Sequence = AUCUUGAAGUCCGUUAUAUGCAGAAUGAAGUUUUGCCAAGUCUGCUGGCAUUCACACGCUUCCAUGGACAAACUUGACUUGCUCUAGGGAACCUUGGGUUAUCAUGUCAC; result = 0.375
Sequence = CCCAGGAAAGGGCCAGCUUGGCGGGAAGGGGCUCUCCCUAGGGGUGCAGCUGGGAGGAGGUCCGAGUACCUCUUCAGUGGCUCUCAGGGGCCAUUUCUGUGGAAGGGGUA; result = 0.9
Sequence = CACUAUUUAUUCUUUGUUCCUUUUUCUUUUUGUAAGAAACAUUCACAAAAACCAGUGCAAAACCAUCGUGUGGGCGUCCUGUUUUAUAUUACAAAACUUCCUCUGGAUAU; result = 0.447
Sequence = AAUUGUGAGAACAAUUUUGAACAAUUUACCUGUCAAUAAAGCAGAAGGCAGCAGUUUUAAAGUUCUCGGGGUUUGUCUGAUAGUGAUGUCACCCAUUAUGCCUUCCUCUA; result = 0.443
Sequence = ACUGGGAGCCACCACCUCCGGCUCCUGGGUGACUUUACACCUAGAUGCUCCGAGAGCUACUGCAUCUGGGACUGUGUCCUUUCUCUGGGAGGCAGUCUUGUCACCUCCCA; result = 0.763
Sequence = AAAAAAUGUUUACACUCUGCAGAUUGAUUUUUUUUUUUUAGUACUGUGGCUUUCUUUUCCUAUUUUAUGAAAAAAAUGAUAAUCUUUUUGUAAAAUUGUCUGUGAAAUAU; result = 0.707
Sequence = AUAAAUUCUAAGGAGGUUUCUAAUUUUGUAAUUGUUAAAAAUAGAGUUAAUUUUGACUUUGUUAGAUGAGGGAGGAAAACUCAACUGUUUCUCUUUGUUAUCUAAAUGUU; result = 1.02
Sequence = AAGGGAAAUGCAUUUCUUAGAAAUCCGUGAACCCUCAGUUGUAUGCUUUCAGUACUCGUGUUAAUAUGUUUCUAUGGCAACUCUGAGGUCAGUGGUUUAGAAAUGAGAUA; result = 0.564
Sequence = UUAAGGCUUUGGAAAGGAGCAAAUAAUAAUGGGAGAAUUAACUCCAAAACUUUGACCUGAAUCAUGUGGAUUUGUCCCAAGAUUAUGCUAGAUGCACCAAGCAUGGCCCA; result = 2.16
Sequence = AAGGGAUUAUCACAGCGCAAUCAUUGUCUACAACAACGUGUACACUCAAUGCCUGGGUUACAUAGGAAAUGCACCCUGAGGUUUUAAUAAAGCCCCUAUGGCUAUAACUU; result = 0.422
Sequence = UGACUUUAUAUUUAAUACAUCUGCUGAUGCUUCGGGGCAUGUCCUGCCACAGGAUUUGCUAAUGUCUGAUGAUCAUGUUCACAGAGAACAUGGGUGAUUACUUGCAGCCA; result = 0.338

Further values, each from its own experiment
Molecule = PhoQ, residues 284 288 289 292 302 303 ASTSDA; target = PhoP, residues 12 14 15 18 19 GQALL (Escherichia coli, UniProt P23836); assay = Sort-seq, refers to: YFP reporter; test system = E. coli; setting = PhoQ-PhoP variant library, added: 10 µM Mg2+; how to read = baseline: high Mg2+ state, higher = stronger signaling; quantity = fold induction; result = 16.6

Some of these lines once more (block 1):
Sequence = ACGCAGTG; result = -0.238
Sequence = AAAATGCC; result = 0.14
Sequence = CACCGCGA; result = -0.345
Sequence = CGGTTCGC; result = -0.273
Sequence = AATAGAGG; result = 0.0629
Sequence = AAAACACG; result = 0.0335
Sequence = ACTGACGA; result = 0.0432
Sequence = GCCCGATA; result = -0.0645
Sequence = ACGGTAAT; result = 0.199
Sequence = AGATCTCA; result = 0.0675
